Published values from different studies.
Lines come from different studies, so protocols differ.
MPO: Myeloperoxidase (MPO, Homo sapiens, UniProt P05164)
Sequence of UniProt P05164 (whole entry, looked up): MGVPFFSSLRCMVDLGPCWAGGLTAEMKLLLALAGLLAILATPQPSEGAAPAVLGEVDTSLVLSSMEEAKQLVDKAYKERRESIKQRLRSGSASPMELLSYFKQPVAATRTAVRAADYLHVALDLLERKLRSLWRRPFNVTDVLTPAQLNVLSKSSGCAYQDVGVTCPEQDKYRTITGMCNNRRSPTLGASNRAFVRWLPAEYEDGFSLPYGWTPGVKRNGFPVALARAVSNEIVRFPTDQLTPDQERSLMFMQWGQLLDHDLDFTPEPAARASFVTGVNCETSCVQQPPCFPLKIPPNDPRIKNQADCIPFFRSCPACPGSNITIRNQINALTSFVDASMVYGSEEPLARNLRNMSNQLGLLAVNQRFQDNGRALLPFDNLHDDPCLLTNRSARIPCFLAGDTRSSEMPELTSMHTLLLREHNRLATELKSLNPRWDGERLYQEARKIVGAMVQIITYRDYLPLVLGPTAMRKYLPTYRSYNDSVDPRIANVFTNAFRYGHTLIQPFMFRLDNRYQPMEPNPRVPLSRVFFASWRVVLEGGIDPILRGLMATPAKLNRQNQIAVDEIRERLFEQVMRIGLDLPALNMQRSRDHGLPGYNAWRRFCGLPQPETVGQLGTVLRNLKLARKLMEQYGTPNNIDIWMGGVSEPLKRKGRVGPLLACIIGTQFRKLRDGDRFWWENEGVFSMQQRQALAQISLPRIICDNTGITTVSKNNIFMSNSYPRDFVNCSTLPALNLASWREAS
rep papain-like protease: Replicase polyprotein 1ab, papain-like protease (rep, Porcine epidemic diarrhea virus, UniProt P0C6Y4)
AMY2: Pancreatic alpha-amylase (AMY2, Sus scrofa, UniProt P00690)
Sequence of UniProt P00690 (whole entry, looked up): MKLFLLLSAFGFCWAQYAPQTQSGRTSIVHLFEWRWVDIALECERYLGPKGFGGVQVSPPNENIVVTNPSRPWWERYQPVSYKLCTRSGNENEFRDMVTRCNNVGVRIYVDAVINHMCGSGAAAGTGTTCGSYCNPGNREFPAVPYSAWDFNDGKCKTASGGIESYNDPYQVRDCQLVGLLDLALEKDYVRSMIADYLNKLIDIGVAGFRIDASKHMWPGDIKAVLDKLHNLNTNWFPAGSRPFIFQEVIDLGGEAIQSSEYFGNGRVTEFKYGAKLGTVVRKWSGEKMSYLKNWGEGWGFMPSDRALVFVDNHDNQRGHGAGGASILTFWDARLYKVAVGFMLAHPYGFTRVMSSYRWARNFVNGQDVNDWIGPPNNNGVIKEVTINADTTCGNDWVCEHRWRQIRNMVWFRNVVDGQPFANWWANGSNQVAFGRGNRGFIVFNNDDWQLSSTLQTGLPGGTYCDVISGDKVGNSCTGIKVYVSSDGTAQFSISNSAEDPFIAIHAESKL
NT5E: 5'-nucleotidase (NT5E, Homo sapiens, UniProt P21589)
Sequence of UniProt P21589 (whole entry, looked up): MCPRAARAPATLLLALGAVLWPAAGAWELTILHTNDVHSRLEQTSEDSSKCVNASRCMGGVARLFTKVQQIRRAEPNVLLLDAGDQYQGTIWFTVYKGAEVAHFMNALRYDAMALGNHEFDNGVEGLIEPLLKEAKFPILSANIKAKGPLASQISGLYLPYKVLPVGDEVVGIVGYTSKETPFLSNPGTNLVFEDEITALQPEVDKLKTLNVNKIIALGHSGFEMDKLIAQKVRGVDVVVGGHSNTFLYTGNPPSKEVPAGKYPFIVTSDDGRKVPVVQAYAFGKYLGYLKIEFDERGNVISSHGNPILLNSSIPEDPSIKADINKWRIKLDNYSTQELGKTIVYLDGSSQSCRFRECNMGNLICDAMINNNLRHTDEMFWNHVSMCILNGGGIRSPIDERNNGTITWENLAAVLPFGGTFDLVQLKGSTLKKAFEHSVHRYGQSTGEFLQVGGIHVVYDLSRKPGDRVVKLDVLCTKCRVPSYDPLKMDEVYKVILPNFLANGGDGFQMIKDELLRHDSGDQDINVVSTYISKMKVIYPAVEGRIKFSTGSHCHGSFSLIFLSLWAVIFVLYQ
rep main protease: Replicase polyprotein 1ab, main protease (rep, Porcine epidemic diarrhea virus, UniProt P0C6Y4)
MAOB: Amine oxidase [flavin-containing] B (MAOB, Homo sapiens, UniProt P27338)
Sequence of UniProt P27338 (whole entry, looked up): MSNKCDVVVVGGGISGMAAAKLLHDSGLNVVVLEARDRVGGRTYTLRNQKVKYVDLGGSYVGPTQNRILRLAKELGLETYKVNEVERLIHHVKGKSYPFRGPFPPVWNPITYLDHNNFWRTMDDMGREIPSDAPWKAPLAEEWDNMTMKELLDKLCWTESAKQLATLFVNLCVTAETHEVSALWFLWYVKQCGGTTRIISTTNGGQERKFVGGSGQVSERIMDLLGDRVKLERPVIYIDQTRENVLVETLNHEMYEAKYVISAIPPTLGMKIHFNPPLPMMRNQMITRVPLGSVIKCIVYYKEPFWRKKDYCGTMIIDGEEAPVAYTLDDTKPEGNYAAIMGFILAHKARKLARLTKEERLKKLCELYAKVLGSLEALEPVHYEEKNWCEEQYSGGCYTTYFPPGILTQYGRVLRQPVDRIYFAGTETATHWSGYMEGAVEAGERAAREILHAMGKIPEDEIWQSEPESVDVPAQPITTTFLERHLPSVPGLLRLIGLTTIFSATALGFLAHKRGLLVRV
SLC22A11: Solute carrier family 22 member 11 (SLC22A11, Homo sapiens, UniProt Q9NSA0)
Sequence of UniProt Q9NSA0 (whole entry, looked up): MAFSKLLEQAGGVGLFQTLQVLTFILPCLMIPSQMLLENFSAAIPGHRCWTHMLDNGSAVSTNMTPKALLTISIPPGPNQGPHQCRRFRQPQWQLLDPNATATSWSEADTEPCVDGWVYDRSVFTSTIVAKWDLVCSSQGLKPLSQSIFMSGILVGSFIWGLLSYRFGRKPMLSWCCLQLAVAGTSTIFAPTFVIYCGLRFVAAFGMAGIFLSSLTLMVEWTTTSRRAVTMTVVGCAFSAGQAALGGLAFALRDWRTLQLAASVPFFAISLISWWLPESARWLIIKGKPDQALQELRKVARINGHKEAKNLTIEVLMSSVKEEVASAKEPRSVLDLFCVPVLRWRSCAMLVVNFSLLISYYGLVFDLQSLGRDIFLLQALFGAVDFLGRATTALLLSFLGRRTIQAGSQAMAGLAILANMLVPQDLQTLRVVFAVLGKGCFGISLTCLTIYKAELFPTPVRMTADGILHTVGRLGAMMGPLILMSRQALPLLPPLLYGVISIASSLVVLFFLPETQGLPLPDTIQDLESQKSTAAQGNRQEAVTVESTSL
PIP4K2C: Phosphatidylinositol 5-phosphate 4-kinase type-2 gamma (PIP4K2C, Homo sapiens, UniProt Q8TBX8)
Sequence of UniProt Q8TBX8 (whole entry, looked up): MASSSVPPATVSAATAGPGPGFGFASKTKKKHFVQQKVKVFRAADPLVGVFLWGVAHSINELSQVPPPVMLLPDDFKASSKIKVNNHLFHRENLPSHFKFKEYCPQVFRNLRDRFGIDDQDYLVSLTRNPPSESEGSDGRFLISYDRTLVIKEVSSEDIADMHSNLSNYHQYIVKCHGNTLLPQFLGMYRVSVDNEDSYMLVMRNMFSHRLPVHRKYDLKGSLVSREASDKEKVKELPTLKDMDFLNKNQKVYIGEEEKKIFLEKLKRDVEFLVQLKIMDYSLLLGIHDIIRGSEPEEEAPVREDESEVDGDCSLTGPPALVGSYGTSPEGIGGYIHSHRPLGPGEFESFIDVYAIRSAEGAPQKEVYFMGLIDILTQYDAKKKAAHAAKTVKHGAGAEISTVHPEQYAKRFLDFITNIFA
SLC6A2: Sodium-dependent noradrenaline transporter (SLC6A2, Homo sapiens, UniProt P23975)
Sequence of UniProt P23975 (whole entry, looked up): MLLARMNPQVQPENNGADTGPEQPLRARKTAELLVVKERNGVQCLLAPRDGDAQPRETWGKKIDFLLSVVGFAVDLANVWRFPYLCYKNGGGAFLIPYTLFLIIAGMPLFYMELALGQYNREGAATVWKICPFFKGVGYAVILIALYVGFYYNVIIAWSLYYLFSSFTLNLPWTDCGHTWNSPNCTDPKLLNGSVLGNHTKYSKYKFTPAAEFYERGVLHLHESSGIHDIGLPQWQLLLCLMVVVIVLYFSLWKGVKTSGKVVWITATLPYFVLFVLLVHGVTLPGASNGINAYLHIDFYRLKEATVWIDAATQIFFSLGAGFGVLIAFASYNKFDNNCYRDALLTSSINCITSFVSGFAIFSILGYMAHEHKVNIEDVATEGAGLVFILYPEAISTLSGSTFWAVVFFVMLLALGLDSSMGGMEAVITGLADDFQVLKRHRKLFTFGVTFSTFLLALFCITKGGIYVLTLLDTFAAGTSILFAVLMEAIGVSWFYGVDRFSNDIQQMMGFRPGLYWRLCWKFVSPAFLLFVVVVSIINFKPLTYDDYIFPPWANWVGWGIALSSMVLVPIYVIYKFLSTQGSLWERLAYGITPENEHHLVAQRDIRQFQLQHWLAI
CDK7 with cyclin H: Cyclin-dependent kinase 7, with cyclin H (CDK7, Homo sapiens, UniProt P50613)
Sequence of UniProt P50613 (whole entry, looked up): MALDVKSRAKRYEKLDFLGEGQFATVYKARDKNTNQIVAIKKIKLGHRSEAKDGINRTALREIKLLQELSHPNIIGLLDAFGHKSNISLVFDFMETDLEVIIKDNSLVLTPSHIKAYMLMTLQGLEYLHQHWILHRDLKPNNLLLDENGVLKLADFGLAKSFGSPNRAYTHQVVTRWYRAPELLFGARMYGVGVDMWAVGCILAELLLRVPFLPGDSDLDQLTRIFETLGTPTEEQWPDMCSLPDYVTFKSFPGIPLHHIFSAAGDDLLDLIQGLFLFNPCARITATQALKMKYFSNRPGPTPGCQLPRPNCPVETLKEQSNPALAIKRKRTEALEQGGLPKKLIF
Sequence of UniProt Q06187 (whole entry, looked up): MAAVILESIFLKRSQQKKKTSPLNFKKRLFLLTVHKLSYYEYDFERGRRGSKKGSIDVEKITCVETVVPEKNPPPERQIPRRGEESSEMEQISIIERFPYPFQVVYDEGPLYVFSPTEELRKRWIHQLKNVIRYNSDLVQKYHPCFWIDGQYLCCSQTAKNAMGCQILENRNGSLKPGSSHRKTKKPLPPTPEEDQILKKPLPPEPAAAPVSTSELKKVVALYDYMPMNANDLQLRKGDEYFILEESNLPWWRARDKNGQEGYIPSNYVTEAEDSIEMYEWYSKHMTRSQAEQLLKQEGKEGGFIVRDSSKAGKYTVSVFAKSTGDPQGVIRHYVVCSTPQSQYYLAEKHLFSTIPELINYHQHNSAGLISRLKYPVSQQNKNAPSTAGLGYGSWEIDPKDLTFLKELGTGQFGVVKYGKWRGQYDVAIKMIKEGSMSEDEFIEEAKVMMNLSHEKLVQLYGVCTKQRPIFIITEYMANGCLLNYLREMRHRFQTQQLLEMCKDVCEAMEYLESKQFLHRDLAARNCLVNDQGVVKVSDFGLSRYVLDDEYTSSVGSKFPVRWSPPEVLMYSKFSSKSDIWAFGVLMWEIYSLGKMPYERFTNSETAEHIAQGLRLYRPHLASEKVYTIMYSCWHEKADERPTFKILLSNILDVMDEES

SMILES	target	test	setting	inhibition [%]
COc1ccc(Cl)cc1-c1cc(=O)[nH]c(=S)n1CC(N)=O	MPO	enzyme activity, inhibitor, fluorescence	5 µM	97.9
O=C(NCc1ccc(O)c(O)c1)c1ccc(Br)cc1	rep papain-like protease	enzyme activity, inhibitor, FRET	10 µM	31.9
NC/C(=C\F)COc1cccc(Cn2c(=S)[nH]c(=O)c3[nH]cnc32)c1	MPO	enzyme activity, inhibitor, fluorescence	10 µM	99.5
CCCN(O)N=Nc1ccc(S(=O)(=O)Nc2onc(C)c2C)cc1	AMY2	enzyme activity, inhibitor	240 µg/mL	63.2
COc1cc(CNC(=O)c2sc3nc(-c4ccccc4)cc(C(F)(F)F)c3c2N)cc(OC)c1OC	NT5E	enzyme activity, inhibitor	10 µM	-8
CCN(O)N=Nc1ccc(S(=O)(=O)Nc2cc(C)on2)cc1	AMY2	enzyme activity, inhibitor	60 µg/mL	31.6
O=C(NCc1cc(O)c(O)c(Br)c1)c1cccc(CCl)c1	rep main protease	enzyme activity, inhibitor, FRET	10 µM	101
COc1ccc(NC(=O)c2ccc3c(c2)C(=O)NC3=O)cc1OC	MAOB	enzyme activity, inhibitor	1 µM	< 5
O=C(NCc1cc(O)c(O)c(Br)c1)N1CCCC1	rep papain-like protease	enzyme activity, inhibitor, FRET	10 µM	111
COC(=O)c1ccc(NC(=O)c2sc3nc(C)cc(C)c3c2N)cc1	NT5E	enzyme activity, inhibitor	10 µM	-32
CC[C@H](C)[C@H](NC(=O)[C@H](CCC(N)=O)NC(=O)[C@H](CC(C)C)NC(=O)[C@H](CCSC)NC(=O)[C@H](CCCCN)NC(=O)[C@H](CO)NC(=O)[C@H](CO)NC(=O)[C@H](CCSC)NC(=O)[C@H](CC(C)C)NC(=O)[C@H](CC(N)=O)NC(=O)[C@@H](NC(=O)[C@@H](NC(=O)[C@H](CO)NC(=O)[C@H](CC(C)C)NC(=O)[C@H](CS)NC(=O)[C@H](CCCNC(=N)N)NC(=O)[C@H](CC(=O)O)NC(=O)[C@H](Cc1c[nH]c2ccccc12)NC(=O)[C@H](Cc1ccccc1)NC(=O)[C@H](C)NC(=O)[C@H](CCC(=O)O)NC(=O)[C@@H](N)CCCCN)C(C)C)[C@@H](C)CC)C(=O)N[C@@H](CC(N)=O)C(=O)N[C@@H](C)C(=O)O	Mitogen-activated protein kinase 3 (MAPK3, Homo sapiens, UniProt P27361)	enzyme activity, inhibitor, radiometric	10 µM	0
Nc1c(C(=O)Nc2nccs2)sc2nc(-c3ccccc3)cc(C(F)(F)F)c12	NT5E	enzyme activity, inhibitor	10 µM	8
O=C(NCc1cc(O)c(O)c(Br)c1)c1nccs1	rep papain-like protease	enzyme activity, inhibitor, FRET	10 µM	99
CC[C@H](C)[C@H](NC(=O)[C@H](CCC(N)=O)NC(=O)[C@@H](NC(=O)[C@H](CCSC)NC(=O)[C@H](CCCCN)NC(=O)[C@H](CO)NC(=O)[C@@H](NC(=O)[C@H](CCSC)NC(=O)[C@H](CC(C)C)NC(=O)[C@H](CC(N)=O)NC(=O)[C@@H](NC(=O)[C@@H](NC(=O)[C@H](CO)NC(=O)[C@H](CC(C)C)NC(=O)[C@H](C)NC(=O)[C@H](CCCNC(=N)N)NC(=O)[C@H](CCC(=O)O)NC(=O)[C@H](Cc1ccc(O)cc1)NC(=O)[C@H](Cc1ccccc1)NC(=O)[C@H](C)NC(=O)[C@H](CC(N)=O)NC(=O)[C@@H](N)CCCCN)[C@@H](C)CC)[C@@H](C)CC)[C@@H](C)O)C(C)C)C(=O)N[C@@H](CC(N)=O)C(=O)N[C@H](C(=O)O)C(C)C	Cyclin-dependent kinase 5, with p25 (CDK5, Homo sapiens, UniProt Q00535)	enzyme activity, inhibitor, radiometric	1 µM	-2
COC(=O)c1ccc(NC(=O)CCSc2nc(C)cc(C)c2C#N)cc1	NT5E	enzyme activity, inhibitor	10 µM	25
CN1CC(Oc2cnc(C#N)cc2-c2ccn3nc(NC(=O)C4CC4)cc3c2)C1	Ribosomal protein S6 kinase beta-1 (RPS6KB1, Homo sapiens, UniProt P23443)	enzyme activity, inhibitor	1 µM	3
Cc1cccc(N(O)N=Nc2ccc(S(=O)(=O)Nc3cc(C)on3)cc2)c1	AMY2	enzyme activity, inhibitor	20 µg/mL	10.5
COCCOCCOCCNC(=O)CSc1nc(-c2ccccc2)cc(C)c1C#N	NT5E	enzyme activity, inhibitor	10 µM	0
O=C(NCc1cc(O)c(O)c(Br)c1)c1ccccc1	rep papain-like protease	enzyme activity, inhibitor, FRET	10 µM	87
Cc1cc(NS(=O)(=O)c2ccc(N=NN(O)c3ccccc3)cc2)no1	AMY2	enzyme activity, inhibitor	60 µg/mL	26.3
CC(=O)Oc1cccc(C(=O)NCc2cc(O)c(O)c(Br)c2)c1C	rep main protease	enzyme activity, inhibitor, FRET	10 µM	83
Cc1cc(NS(=O)(=O)c2ccc(N=NN(C)O)cc2)no1	AMY2	enzyme activity, inhibitor	180 µg/mL	42.1

SMILES	target	test	setting	inhibition [%]
N#Cc1c(Cl)c(Cl)c(Cl)c(C#N)c1Cl	SLC22A11	transporter uptake, inhibitor	25 µM	77.4
CCN(O)N=Nc1ccc(S(=O)(=O)Nc2onc(C)c2C)cc1	AMY2	enzyme activity, inhibitor	300 µg/mL	68.4
CCOC(=O)c1ccc(NC(=O)c2sc3nc(C)cc(C(F)(F)F)c3c2N)cc1	NT5E	enzyme activity, inhibitor	10 µM	41
CCCCC(=O)Nc1ccc(-c2ccc3ncn(CCC)c(=O)c3c2)cn1	PIP4K2C	binding	0.5 µM	100
Cc1noc(NS(=O)(=O)c2ccc(N=NN(C)O)cc2)c1C	AMY2	enzyme activity, inhibitor	300 µg/mL	68.4
N#CC[C@@]12C[C@@H]1[C@@H](n1cnc3c(NCCCCCc4ccccc4)nc(C#Cc4ccc(Cl)s4)nc31)[C@H](O)[C@@H]2O	SLC6A2	ligand displacement, radioligand	10 µM	0
CN1[C@@H](CC(=O)c2ccccc2)CCC[C@H]1C[C@H](O)c1ccccc1	CDK7 with cyclin H	enzyme activity, inhibitor, ADP detection	10 µM	3.62
CCOc1nc2cccc(C(=O)O)c2n1Cc1ccc(-c2ccccc2-c2nnn[nH]2)cc1	SLC22A11	transporter uptake, inhibitor	25 µM	50 to 90
Cn1c(=O)c2c(ncn2C)n(C)c1=O	ATP-binding cassette sub-family C member 4 (ABCC4, Homo sapiens, UniProt O15439)	transporter uptake, inhibitor	200 µM, oocytes	20
CCCC(=O)Nc1ccc(-c2ccc3ncn(Cc4ccccc4)c(=O)c3c2)cn1	PIP4K2C	binding	0.5 µM	< 80
O=c1cc(-c2ccccc2)oc2ccc3ccccc3c12	CDK7 with cyclin H	enzyme activity, inhibitor, ADP detection	10 µM	85.8
O=C(NCc1cc(O)c(O)c(Br)c1)c1ccno1	rep papain-like protease	enzyme activity, inhibitor, FRET	10 µM	97.8
Cc1cc(O)c(-c2ccc([C@@H](C)CN(C)C)cc2)c2c1[nH]c(=O)c1sccc12	Calcium/calmodulin-dependent protein kinase type II subunit delta (CAMK2D, Homo sapiens, UniProt Q13557)	cell-free assay, inhibitor	0.1 µM	1.19
[2H]c1cc(C)c(NC(=O)c2cnc(Nc3cc(N4CCCCC4)nc(C)n3)s2)c(Cl)c1	Tyrosine-protein kinase BTK (BTK, Homo sapiens, UniProt Q06187)	enzyme activity, inhibitor, mobility shift	10 nM	> 90
COc1cc(CNC(=O)c2cccc(CCl)c2)cc(Br)c1OC	rep main protease	enzyme activity, inhibitor, FRET	10 µM	31.8
O=C(Nc1ccc(F)c(Cl)c1)c1ccc2c(c1)C(=O)NC2=O	MAOB	enzyme activity, inhibitor	1 µM	96.2
CCOC(=O)[C@@]12C[C@@H]1[C@@H](n1ccc3c(NCCCCCc4ccccc4)nc(C#Cc4ccccc4)nc31)[C@H](O)[C@@H]2O	SLC6A2	ligand displacement, radioligand	10 µM	67
O=c1c(-c2ccc(O)cc2)coc2cc(O)ccc12	CDK7 with cyclin H	enzyme activity, inhibitor, ADP detection	10 µM	31.9
CCCCC(=O)Nc1ccc(-c2cnc3ncn(CCC)c(=O)c3c2)cn1	PIP4K2C	binding, competition with immobilised ligand	0.5 µM	91
Cc1cc(-c2ccccc2)nc(SCC(=O)NCc2ccccc2)c1C#N	NT5E	enzyme activity, inhibitor	10 µM	47
Cc1noc(NS(=O)(=O)c2ccc(N=NN(O)c3ccccc3)cc2)c1C	AMY2	enzyme activity, inhibitor	120 µg/mL	42.1
CCCCn1cnc2ccc(-c3ccc(NC(C)=O)nc3)cc2c1=O	PIP4K2C	binding	0.5 µM	85.8

Some of these lines once more:
SMILES	target	test	setting	inhibition [%]
[2H]c1cc(C)c(NC(=O)c2cnc(Nc3cc(N4CCCCC4)nc(C)n3)s2)c(Cl)c1	Tyrosine-protein kinase BTK (BTK, Homo sapiens, UniProt Q06187)	enzyme activity, inhibitor, mobility shift	10 nM	> 90
COc1cc(CNC(=O)c2cccc(CCl)c2)cc(Br)c1OC	rep main protease	enzyme activity, inhibitor, FRET	10 µM	31.8
O=C(Nc1ccc(F)c(Cl)c1)c1ccc2c(c1)C(=O)NC2=O	MAOB	enzyme activity, inhibitor	1 µM	96.2
